Measured values gathered from unrelated publications.
Every numbered part comes from another study and shows a few of its results, in no order. Changes are numbered by the printed parent chain.

Block 1
Target: Histone acetyltransferase KAT6A, winged helix 2, GST fusion (KAT6A, Homo sapiens, UniProt Q92794, residues 85-181)
Method: protein binding microarray
Form: double-stranded DNA, one strand shown
Matrix: in vitro
Concentration: not given
Notes: 8-mer, flanks averaged, mean of 2 arrays, mostly near background
Baseline: not given
Reading: higher = stronger binding
Target sequence (chain): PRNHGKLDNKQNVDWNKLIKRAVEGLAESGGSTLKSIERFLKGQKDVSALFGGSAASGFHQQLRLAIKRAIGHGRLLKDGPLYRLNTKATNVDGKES
For `AACCCGAT`, the E-score was 0.0121.
`AGTCGTGG` has an E-score of -0.00762.
With `AAACATAA` the E-score was -0.0936.
With `AATGTGAT` the E-score was -0.0874.
The E-score of `CTCCTCTC` is reported as -0.183.
`CTCAATTC` gave an E-score of -0.0929.
`AAGTGTAT` gave an E-score of -0.198.
With `ATTGATTA` the E-score was 0.0598.
`GTGGTCGA` gave an E-score of -0.112.
With `GGTCAGAC` the E-score was 0.0122.
The E-score of `CATATCAC` is reported as -0.0965.
The E-score of `ATAAAAGG` is reported as -0.127.
`CTTAGTCA` gave an E-score of -0.0277.
With `ACAGACAA` the E-score was 0.131.
`AATCCACC` gave an E-score of -0.0909.
With `TGACCTAA` the E-score was 0.129.
`CCGGAACG` has an E-score of -0.0788.
For `AAGCGGTC`, the E-score was 0.111.
`GAGATACA` gave an E-score of 0.168.
For `CTGACCCC`, the E-score was -0.0483.
`ACGTCAAT` has an E-score of -0.24.
`TACGGGAA` has an E-score of 0.00957.
The E-score of `CCCGCTTC` is reported as 0.0498.
`CGCCGCGC` has an E-score of 0.206.
The E-score of `CTATGTCC` is reported as -0.128.

Block 2
Target: RING finger protein unkempt homolog, zinc fingers 1-6, GST-SBP tag (UNK, Homo sapiens, UniProt Q9C0B0, residues 30-357)
Sequence of UniProt Q9C0B0 (30-357, looked up): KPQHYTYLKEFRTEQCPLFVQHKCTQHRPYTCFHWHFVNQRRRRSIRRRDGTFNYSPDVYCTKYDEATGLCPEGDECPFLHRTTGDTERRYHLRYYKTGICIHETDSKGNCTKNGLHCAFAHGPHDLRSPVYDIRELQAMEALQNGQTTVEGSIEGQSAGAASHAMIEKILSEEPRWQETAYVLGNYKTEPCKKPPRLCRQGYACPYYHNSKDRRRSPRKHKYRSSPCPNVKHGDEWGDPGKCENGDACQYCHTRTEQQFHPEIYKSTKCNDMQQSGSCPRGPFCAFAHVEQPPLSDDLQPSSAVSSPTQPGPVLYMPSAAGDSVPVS
Method: RNA Bind-n-Seq
Form: RNA
Matrix: in vitro
Concentration: not given
Notes: RNA with constant flanks, ends assumed
Baseline: input RNA pool
Reading: higher = stronger binding
All sequences stand within: GGGAGUUCUACAGUCCGACGAUC … CAACAGAGGAUUGAGCAUCA
For `UUGGCCAGUCAGUAUUCAGUUAAUGAAAUGUAUGCCGAAGCACUUAACACUUAUCAAGUUACCGUCAAAAAUAAGAUGUUUAGCAAUGCAGGAAUAUUGAAAAUGAAUAUGGGAAAUAUC`, the bound/input enrichment was 0.292 ratio.
With `CUUCAGCUGUCUACACCACAGAAAGCAAGUCAACACCAAGUUUUAUUUUUGUUAUCAGAUGCCGCACAUGCUAAGAAUCCCACCCAUUCCAAUAAAAAACUACCUACCUCUGCUUCAGUU` the bound/input enrichment was 0.383 ratio.
For `CCUGAGCUAAAAUACCCAAAAGGAGCUGGGAGAGUUGCGUUCUCUAAUCAACAGAGUUACACCGCUGCUAUCAGUGCCCGCUUUGUUCAGCUGCAGCAUGGAGAGAUAGAUAAACGGGUG`, the bound/input enrichment was 0.198 ratio.
For `AUUGAGAAAUAAUACUAUCUUCUACGUUACUUGUGUAAAAGGUGUGUCUGAUUGGACUUGUUCCGAAUUCCUUUUAAAACUAACUCAUUAGAUUGAAGGUAUAUUUUCUAAUUACAGUUC`, the bound/input enrichment was 1.35 ratio.
`UUCAUUUUUUUUUUUAAGUGGUUCUCUGCCACAAGAAAGCUUGACACAUUCUUACCAAGAACCCGCCAGGCUUCAUACUUUCUGCUGUGUUCCCGAUAUCUAUGUACUGUGAAGAACCGU` gave a bound/input enrichment of 0.902 ratio.
The bound/input enrichment of `GAUUUUGCCAUGCCCUAUUUCAUCCAGGUCAUGAAGGAGUACUUGACAAAGGUGGAUAAAUCCGAUGCUUCAGAAUCACUGAGAAAAGAAGAAGAACAAGCUACAGAGACACAACCCAUU` is reported as 0.187 ratio.
`CAGGAAGAUAUCGAUCCUCAGAAGGUUGCAUUUCUCCUCCACAAACAGUGGACUAUAUACCGUUUAACUCCCUUGUAUAAAUUCUCCUAUUCUAAUCUCAAAGACUAUUCUAGACUUCUA` has a bound/input enrichment of 0.711 ratio.
`UAAUUUGGCUGCAAUUGCAUGAAAUCCCAAUGGUGUAGACCAGUGGCGAUGGAUCCCGGAGUUUACCAACUGAGACAUUUUUCCAUUUCUUUCUUGUCGUCUUUGCUGGGAACCGAAAAC` gave a bound/input enrichment of 0.264 ratio.
`CUCGGCAGCACUGCGCAGCUCUCGAAUCUCUCGUGCUUCAACCUUUCUUUUCUUAUUGUUAACCGGAAAAAAUCAACAUCUGUAAAUUAAGAAUACAGCAAUUAUCUGUACAGUACUGCA` has a bound/input enrichment of 0.0562 ratio.
`UCCAAAAAGAUUCAGCAGAUCCAUGUGGUUUCCCAGUUUAAGAUUCUGGUCAGCUUGUCCGAAAAUAACAUUUAUGUCCAUGACCUAUUGACAUUUCAACAAAUCACUACGGUUUCAAAG` has a bound/input enrichment of 0.0977 ratio.
The bound/input enrichment of `AUUCUGUGGGCCACUCUCCCCAACGUUCUGACACUUCUGCAGUCUGAUCAGUGGCGAUGCCCGAUUAUAAUUUCAAACUGUGAAGAAUAAUGGUCUUGUCAUUUGCUCAAUGUGGGGUUA` is reported as 0.143 ratio.

Block 3
Target: RNA binding protein fox-1 homolog 2, RRM domain, GST-SBP tag (RBFOX2, Homo sapiens, UniProt O43251-10, residues 100-194)
Method: RNA Bind-n-Seq
Form: RNA
Matrix: in vitro
Concentration: 365 nM
Notes: natural RNA segment, single round, ends assumed
Baseline: no-protein control
Reading: higher = stronger binding
All sequences stand within: GGGAGUUCUACAGUCCGACGAUC … UGGAAUUCUCGGGUGCCAA
Target sequence (chain): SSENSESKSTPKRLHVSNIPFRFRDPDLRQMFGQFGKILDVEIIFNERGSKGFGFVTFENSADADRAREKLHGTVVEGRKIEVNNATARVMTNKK
Under “RBNS enrichment (R)”, `UGUGUGUAACUUCUAACUUCACUGGUUCCUCCCAUCUGAAUUGGCCACAUGCUUGCUGAAGAGACUUGUUUUCUUCUUCUAAGACAGUGGUUUUGUUUUUUGGGUUUUUU` is recorded as 0.227.
Under “RBNS enrichment (R)”, `UGUAGUAUUUCUGUACAUACCUGUUUCCAGCAACUUCAGUGUCAAUGUUUUUGAUUUAUUUGUGUCUUAUAGCUCUAGCUGCUAAUAAAGAUCCCAUGUCCUGCUUUCUC` is recorded as 0.241.
For `AGAAAUGGUCAUAAACACAAAUCAAAAUAUAGUAUUAUAGAUCAUAGAACCAAGUCACGUAACCAGGAAAAACCUGUUAAUCAUAUCCCGUUGGAAAAUAUCACAUUUGA`, “RBNS enrichment (R)” read 0.579.
For `UUGUAGGUCCCGCAUACAUGUCCACCAGGACAUUAGACAGUCGUAAAGAUGCAGAACGAACAGUUUGUGUGUGGGACUGACCCACCCACACACAGCAGGGCACUUGUUCU`, “RBNS enrichment (R)” read 1.
Under “RBNS enrichment (R)”, `UGGGUGAACAUGGUUUUUUUGGAAUCAACUGAGAUAAUGCUAUUUCAAUAGCGGCUGGCUUUUUGUGAUUCAGUAACUUAAAUAUUGCCAGUGACUGAGGAUCCCCUCCA` is recorded as 0.404.
`UUUGGUAAUAUGUUAGCUCUCAUUGGACAAGAUAGACGCCAUAUAGGAGGCUGAGGGUUAGGACACAGUAAAAUGAAUUUAACAGUUUCACUGCUUUCUCAAGUAGUUUU` — result for “RBNS enrichment (R)”: 0.742.
Under “RBNS enrichment (R)”, `AGCUGGUAGGGACAUUACACCAGGUACCCCGUGGCUAUCCCUACCCAGUGUCGGUGGCCCGGCACAGGGCCGUGCUCUGUCGGACUGUACGGAUUGUUCAGCUUCAGACU` is recorded as 0.349.
`CUGUGUUUCUCUUUUCUCUGAAAGGAUUAAUAGAUCUGAAGCUUUGGGCCACUCAGAGCCUUCCUUGAUGCUGCCAGAGUCUUCUUAUUUAGAUUUUCUGUCUUAAACCA` — result for “RBNS enrichment (R)”: 0.23.
For `UUUUUUUCCAAUCUCUGGCUCUUCUGUCAUCUUCCAAGCAGCGUCUGAGAGCUCUGCACGGGCACAGAUGCUGGGUACCUCUUAUGGGUGUGGCAGUAUUACACGAAACA`, “RBNS enrichment (R)” read 0.288.
`CCUAAUGAUAUGAAGCCUUCUUUGUCUCUGACCUUUUUUCUCUGAGACCAGGAAUCUAGAUAAUAGUUUAGCUUCUGCCUGAUACUGAUCCGGGAGCACAUGAUAUUUAU`: “RBNS enrichment (R)” 0.577.
Under “RBNS enrichment (R)”, `CUUGUCAUCUUUUAGAGUAAACUAUUCUAUAAACAUAUGCAAACAGCCCUAAAUAAAUCUAAAGUCUAAAGUUUUAUUGAUGUGAAAUUAAAUUCUUAUUGGCCAAAUGC` is recorded as 0.585.
`AUUUGUUUUAAGAGAUAGAACUCUAUUUUUUUGAACUUCCAGAGAAUUGCAUUCAUGGCUUCCACUUGUAAAUAUGCUAAGGGUAUUUUAAUAAAUCUUGGUUUCAUGUC` — result for “RBNS enrichment (R)”: 0.634.

Block 4
Target: CCNF, cyclin fold, Cln2 fusion (human)
Method: yeast growth competition, sequencing
Matrix: yeast
Notes: weak parent motif
Baseline: not given
Reading: higher = stronger binding
Starting sequence: LLGL2 docking peptide (human); KSLKKSLRQSFRR
Under “normalised enrichment score”, `ASLKKSLRQSFRR [K1A]` is recorded as 0.685.
`KSLKKSLRQAFRR [S10A]` — result for “normalised enrichment score”: 1.03.
Under “normalised enrichment score”, `KALKKSLRQSFRR [S2A]` is recorded as 1.07.
`KSLKKSLRQSARR [F11A]`: “normalised enrichment score” 0.157.
Under “normalised enrichment score”, `KSLKKSLAQSFRR [R8A]` is recorded as 0.869.
`KSAKKSLRQSFRR [L3A]` — result for “normalised enrichment score”: 0.656.
`KSLAKSLRQSFRR [K4A]`: “normalised enrichment score” 1.3.

Block 5
Target: Interferon regulatory factor 5, full length, phosphomimetic (IRF5, Homo sapiens, UniProt Q13568-2, residues 1-514, S451D/S453D/S456D/S462D)
Method: protein-binding microarray
Form: double-stranded DNA, one strand shown
Matrix: in vitro
Concentration: 940 nM top
Notes: 60-bp whole probe
Added: salmon DNA 0.4 mg/ml
Baseline: random background probes
Reading: higher = stronger binding
All sequences stand within: GCCTAGCAC … GTCTTGATTCGCTTGACGCTGCTG
`TTAGGTTTCGGGACTGGGTTGGTGCTA` — result for “fitted relative affinity”: 8.11 z-score.
Under “fitted relative affinity”, `TTAGAACTCAGTCTCGATTAGTGCTAG` is recorded as 2.79 z-score.
`TCATTTTTCATTGTTTTACTGTGCTAG` — result for “fitted relative affinity”: 1.62 z-score.
For `TCATTTTTCTTTAAAAGACTGTGCTAG`, “fitted relative affinity” read 0.35 z-score.
`TTAGGTTTGGGGTATCGGTTAGTGCTA`: “fitted relative affinity” 3.14 z-score.
For `TTAGGTATCGTTCTCCTTTAGTGCTAG`, “fitted relative affinity” read 5.81 z-score.
For `TTAGATTTCAGTCTCGATAAGTGCTAG`, “fitted relative affinity” read 3.67 z-score.
`TATTTTATATGCTATGTACTGGTGCTA`: “fitted relative affinity” 0.146 z-score.
For `GACGGTTTCGGACCGGGGACGTGCTAG`, “fitted relative affinity” read 5.71 z-score.
For `GACGGGTTCCTTCTCCTGACGTGCTAG`, “fitted relative affinity” read 0.433 z-score.
`GACGGTATCCACTTTCGGGACGTGCTA` — result for “fitted relative affinity”: 1.69 z-score.
`TCATTTTTTTTTTTTTAACTGTGCTAG`: “fitted relative affinity” 1.45 z-score.
Under “fitted relative affinity”, `TTAGCTATCGGTTTCGGTTAGTGCTAG` is recorded as 8.26 z-score.
Under “fitted relative affinity”, `TCATTAATGAAAATTCTAACTGTGCTA` is recorded as 0.248 z-score.
`CTCTTGTTCTCTCTGGCCCTGTGCTAG` — result for “fitted relative affinity”: 1.52 z-score.
Under “fitted relative affinity”, `TCATTTCTATGTCTGTTACTGTGCTAG` is recorded as 0.875 z-score.
For `GAGGATATCGGGTTTCGAGACGTGCTA`, “fitted relative affinity” read 1.32 z-score.
`TCATTATTAAAACTTCATACTGTGCTA`: “fitted relative affinity” 0.98 z-score.
`TTAGGTTCCAGTTTCGGTTAGTGCTAG` — result for “fitted relative affinity”: 9.01 z-score.
`GACGGTATCCTTATCCTGAGGTGCTAG` — result for “fitted relative affinity”: 0.0964 z-score.
`GACGATATCGGGTATCGAGACGTGCTA` — result for “fitted relative affinity”: 0.691 z-score.
Under “fitted relative affinity”, `ATGTCTTCCCCTCTCTTTCCGTGCTAG` is recorded as 1.09 z-score.
